Published values gathered from unrelated publications.
Parts stem from different laboratories: compare values within a part only. “And” joins repeats or separate records; there may be more than shown.

Block 1
Target: Replicase polyprotein 1ab, main protease (rep, Severe acute respiratory syndrome coronavirus 2, UniProt P0DTD1)
Effect on: enzyme activity
Action: inhibitor
Tested at: 20 µM
Notes: primary screen
Quantity: inhibition
N=C(N)c1cc2ccc(OC(=O)c3cccs3)cc2s1: 40.8%
COC1=C2C[C@@H](C)C[C@H](OC)[C@H](O)[C@@H](C)/C=C(\C)[C@H](OC(N)=O)[C@@H](OC)/C=C/C=C(\C)C(=O)NC(=CC1=O)C2=O: 31.5%
O=C(NC(=S)N1CCCc2ccccc21)c1ccccc1: 74.9%

Block 2
Target: Histone acetyltransferase KAT6A, winged helix 1, GST fusion (KAT6A, Homo sapiens, UniProt Q92794, residues 1-85)
Method: protein binding microarray
Molecule type: double-stranded DNA, one strand shown
Medium: in vitro
Tested at: not given
Notes: 8-mer, flanks averaged, mean of 2 arrays, mostly near background
Relative to: not given
Reading: higher = stronger binding
Quantity: E-score
Construct (chain): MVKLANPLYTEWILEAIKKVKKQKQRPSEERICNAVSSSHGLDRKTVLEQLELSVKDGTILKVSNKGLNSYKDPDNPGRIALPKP
GAACGCTA: 0.0406
AGTTATGC: -0.0069
AGGGTAAT: -0.0986
GATGACCA: 0.11
CAACCTCG: -0.0101
AATTGCCA: -0.282
AATCTGGG: -0.187
GGCACTAC: 0.109

Block 3
Target: Interferon regulatory factor 5, full length, phosphomimetic (IRF5, Homo sapiens, UniProt Q13568-2, residues 1-514, K96S/S451D/S453D/S456D/S462D)
Method: protein-binding microarray
Molecule type: double-stranded DNA, one strand shown
Medium: in vitro
Tested at: 250 nM
Notes: 60-bp whole probe
With: salmon DNA 0.4 mg/ml
Relative to: random background probes
Reading: higher = stronger binding
Quantity: log fluorescence
Constant ends, left off below: GCCTAGCAC … GTCTTGATTCGCTTGACGCTGCTG
CGACATTTTTATTTGCCTTAGTGCTAG: 0.758 z-score
TTAGGTTTCCTTTCCATTTAGTGCTAG: 2 z-score
TTAGGTTTCGGACTAGGTTAGTGCTAG: 6.03 z-score
TATAATTTTGTCATCTATAAGTGCTAG: 1.24 z-score
TCATGTTTAAGAATGTTACTGTGCTAG: 0.226 z-score
TTAGGTTTCGACACTTGGTTAGTGCTA: 5.21 z-score
TAATGCTTCTGTATTCATGAGTGCTAG: 0.342 z-score
GAAGAACTGAGTTTCGAGACGTGCTAG: 5.02 z-score

Block 4
Cell line: HEK-293T/ACE2
Tested at: concentration not given
Time: 16 (unit not given)
Relative to: vehicle
Quantity: viability
CC(C(=O)O)c1ccc(-c2ccccc2)c(F)c1 (stereo not shown): 103%
CC1(C)O[C@@H]2C[C@H]3[C@@H]4C[C@H](F)C5=CC(=O)C=C[C@]5(C)[C@H]4[C@@H](O)C[C@]3(C)[C@]2(C(=O)CO)O1: 106%
Nc1nc(F)nc2c1ncn2[C@@H]1O[C@H](COP(=O)(O)O)[C@@H](O)[C@@H]1O: 100%
COC(=O)C1=C(C)NC(C)=C(C(=O)OCC(C)C)C1c1ccccc1[N+](=O)[O-] (stereo not shown): 101%

Block 5
Target: Replicase polyprotein 1ab, nsp13 helicase (rep, Severe acute respiratory syndrome coronavirus 2, UniProt P0DTD1)
Action: inhibitor
Tested at: 20 µM
Quantity: inhibition
N#Cc1cccc(-c2nc(-c3cccnc3)no2)c1: 1.64%
COc1ccccc1CC(=N)N1C[C@@H]2C(=O)CCC(c3ccccc3)(c3ccccc3)[C@@H]2C1: 29.2%
CC(C)C[C@H](NC(=O)[C@@H](Cc1c[nH]c2ccccc12)NC(=O)[C@H](Cc1ccc(O)cc1)NC(=O)[C@H](CO)NC(=O)[C@H](Cc1c[nH]c2ccccc12)NC(=O)[C@H](Cc1cnc[nH]1)NC(=O)[C@@H]1CCC(=O)N1)C(=O)N[C@@H](CCCN=C(N)N)C(=O)N1CCC[C@H]1C(=O)NCC(N)=O: -0.51%
C[N+](C)(C)CCOP(=O)(O)OP(=O)([O-])OC[C@H]1O[C@@H](n2ccc(N)nc2=O)[C@H](O)[C@@H]1O: 0.24%
CC(C)(C)OC(=O)c1ncn2c1[C@@H]1CCCN1C(=O)c1c(Br)cccc1-2: 3.21%
C[C@H]1Oc2cc(cnc2N)-c2c(nn(C)c2C#N)CN(C)C(=O)c2ccc(F)cc21: 2.37% and -1.93%
CC(=O)OCC(=O)[C@@]1(O)CC[C@H]2[C@@H]3CCC4=CC(=O)C=C[C@]4(C)[C@@]3(F)[C@@H](O)C[C@@]21C: 5.93%
O=C(Oc1ccccc1C(=O)O)c1ccccc1O: 3.82%
CCCCN(CCCC)CCCOC(=O)c1ccc(N)cc1: 2.78%
O=C(/C=C/c1ccccc1)NC(NC(=S)Nc1cccc2cccnc12)C(Cl)(Cl)Cl (stereo not shown): -5.09%
CCc1cc2cc(OC)c(OC)cc2c(Cc2ccccc2)n1: 0.24%
C[C@@H](O)[C@H]1C(=O)N2C(C(=O)O)=C(S[C@@H]3CN[C@H](C(=O)N(C)C)C3)[C@H](C)[C@H]12: 4.56%
Cc1cccc(NC(=O)N[C@@H]2N=C(c3ccccc3)c3ccccc3N(CC(=O)c3ccccc3C)C2=O)c1: 3.84%
CCOC(=O)c1ccc(NC2CCCCC2)c(N)c1: 1.77%
CC1(C)CCC(C)(C)c2cc(Cn3cccn3)c(/C=C/c3ccc(C(=O)O)cc3)cc21: 18%
C[C@H]1[C@@H](O)O[C@@H]2O[C@@]3(C)CC[C@H]4[C@H](C)CC[C@@H]1[C@@]24OO3: 8.04%
CCN(C)C(=O)Oc1cccc([C@H](C)N(C)C)c1: -0.25%
CO/N=C(\C(=O)N[C@@H]1C(=O)N2C(C(=O)OC(C)OC(C)=O)=C(COC(N)=O)CS[C@H]12)c1ccco1 (stereo partly shown): 2.75%
Cc1cc(=O)n(-c2ccccc2)[nH]1: 12.2%
COC(=O)N1CC[C@@H]2[C@H]1CCC[C@@]2(O)C#Cc1cccc(C)c1: 12.1%
CC(NC(=O)c1ccccc1/N=C/c1c(O)ccc2ccccc12)c1ccccc1 (stereo not shown): 6.64%
CCCCCCc1ccc(O)cc1O: -26%
COc1ccccc1N1CCN(CC(O)COc2cccc3ccccc23)CC1 (stereo not shown): 2.62%
C[C@@]12C(=O)OC(=O)[C@]1(C)[C@H]1CC[C@@H]2O1: 1.77%

Block 6
Target: Sal-like protein 4, full length isoform A (SALL4, Homo sapiens, UniProt Q9UJQ4, residues 1-1053)
UniProt Q9UJQ4, sequence (whole entry, looked up): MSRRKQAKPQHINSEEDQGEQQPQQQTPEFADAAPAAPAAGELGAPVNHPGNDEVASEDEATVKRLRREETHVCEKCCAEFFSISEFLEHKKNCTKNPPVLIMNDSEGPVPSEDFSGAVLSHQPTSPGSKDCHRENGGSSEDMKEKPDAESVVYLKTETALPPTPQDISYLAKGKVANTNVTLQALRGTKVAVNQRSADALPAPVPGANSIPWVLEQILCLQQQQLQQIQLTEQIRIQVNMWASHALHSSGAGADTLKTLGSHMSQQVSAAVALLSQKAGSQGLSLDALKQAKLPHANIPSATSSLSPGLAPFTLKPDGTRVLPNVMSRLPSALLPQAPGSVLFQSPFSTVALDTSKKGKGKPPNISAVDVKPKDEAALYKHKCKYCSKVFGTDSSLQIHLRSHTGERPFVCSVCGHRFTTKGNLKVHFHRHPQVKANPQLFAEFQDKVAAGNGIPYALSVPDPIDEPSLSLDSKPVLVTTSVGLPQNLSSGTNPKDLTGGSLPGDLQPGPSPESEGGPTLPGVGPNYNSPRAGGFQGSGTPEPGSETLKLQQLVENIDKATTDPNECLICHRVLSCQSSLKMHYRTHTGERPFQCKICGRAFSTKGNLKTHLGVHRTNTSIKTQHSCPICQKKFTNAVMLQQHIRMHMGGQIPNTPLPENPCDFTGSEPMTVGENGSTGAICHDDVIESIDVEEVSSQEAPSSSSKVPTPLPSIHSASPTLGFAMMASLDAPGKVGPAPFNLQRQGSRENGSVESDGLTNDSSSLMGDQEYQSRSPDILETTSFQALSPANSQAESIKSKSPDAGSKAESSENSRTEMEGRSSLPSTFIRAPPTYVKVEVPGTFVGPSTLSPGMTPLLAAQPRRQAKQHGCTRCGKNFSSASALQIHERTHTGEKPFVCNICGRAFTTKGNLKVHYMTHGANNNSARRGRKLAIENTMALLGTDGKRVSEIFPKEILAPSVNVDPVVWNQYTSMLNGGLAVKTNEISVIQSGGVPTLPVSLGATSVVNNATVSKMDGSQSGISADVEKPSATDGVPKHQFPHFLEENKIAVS
Method: universal PBM
Molecule type: double-stranded DNA, one strand shown
Medium: in vitro
Tested at: 600 nM
Notes: 8-mer, flanks averaged, mean of replicates
Reading: higher = stronger binding
Quantity: E-score
ATCCGTGC: 0.0362
GAACCGGC: -0.407
ACCTAGAC: -0.105
CAGGAAAC: -0.0095
ACGTGACG: -0.0694
CACGAATC: -0.0842
TATGCCAA: 0.187
ATCAACGC: 0.161

For quick reference, copied from above (block 5):
O=C(Oc1ccccc1C(=O)O)c1ccccc1O: 3.82%
C[N+](C)(C)CCOP(=O)(O)OP(=O)([O-])OC[C@H]1O[C@@H](n2ccc(N)nc2=O)[C@H](O)[C@@H]1O: 0.24%
C[C@@]12C(=O)OC(=O)[C@]1(C)[C@H]1CC[C@@H]2O1: 1.77%
CCOC(=O)c1ccc(NC2CCCCC2)c(N)c1: 1.77%
CO/N=C(\C(=O)N[C@@H]1C(=O)N2C(C(=O)OC(C)OC(C)=O)=C(COC(N)=O)CS[C@H]12)c1ccco1 (stereo partly shown): 2.75%
C[C@H]1Oc2cc(cnc2N)-c2c(nn(C)c2C#N)CN(C)C(=O)c2ccc(F)cc21: 2.37% and -1.93%
